Published values from different studies.
Numbers after ± are the reported error.
SIRT6: NAD-dependent protein deacylase sirtuin-6 (SIRT6, Homo sapiens, UniProt Q8N6T7)
Chain of UniProt Q8N6T7 (whole entry, looked up): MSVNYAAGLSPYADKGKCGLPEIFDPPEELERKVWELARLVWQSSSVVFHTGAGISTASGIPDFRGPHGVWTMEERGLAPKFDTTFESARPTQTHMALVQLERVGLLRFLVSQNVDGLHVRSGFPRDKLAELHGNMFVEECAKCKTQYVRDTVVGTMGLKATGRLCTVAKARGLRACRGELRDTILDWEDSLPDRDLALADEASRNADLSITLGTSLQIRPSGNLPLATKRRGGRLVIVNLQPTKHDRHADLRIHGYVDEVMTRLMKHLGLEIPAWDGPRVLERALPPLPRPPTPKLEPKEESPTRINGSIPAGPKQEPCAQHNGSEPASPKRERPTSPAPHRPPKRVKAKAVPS
AKR1C3: Aldo-keto reductase family 1 member C3 (AKR1C3, Homo sapiens, UniProt P42330)
Chain of UniProt P42330 (whole entry, looked up): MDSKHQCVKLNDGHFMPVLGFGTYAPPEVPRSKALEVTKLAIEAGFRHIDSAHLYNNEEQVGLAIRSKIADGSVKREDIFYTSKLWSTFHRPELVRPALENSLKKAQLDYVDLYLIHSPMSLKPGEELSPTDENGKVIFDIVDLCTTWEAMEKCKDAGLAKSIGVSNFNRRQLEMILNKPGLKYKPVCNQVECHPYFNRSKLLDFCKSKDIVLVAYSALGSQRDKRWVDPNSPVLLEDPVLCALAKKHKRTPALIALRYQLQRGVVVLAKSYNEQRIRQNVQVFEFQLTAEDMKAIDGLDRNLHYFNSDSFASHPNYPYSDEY
ST6GAL1: Beta-galactoside alpha-2,6-sialyltransferase 1 (ST6GAL1, Homo sapiens, UniProt P15907)
Chain of UniProt P15907 (whole entry, looked up): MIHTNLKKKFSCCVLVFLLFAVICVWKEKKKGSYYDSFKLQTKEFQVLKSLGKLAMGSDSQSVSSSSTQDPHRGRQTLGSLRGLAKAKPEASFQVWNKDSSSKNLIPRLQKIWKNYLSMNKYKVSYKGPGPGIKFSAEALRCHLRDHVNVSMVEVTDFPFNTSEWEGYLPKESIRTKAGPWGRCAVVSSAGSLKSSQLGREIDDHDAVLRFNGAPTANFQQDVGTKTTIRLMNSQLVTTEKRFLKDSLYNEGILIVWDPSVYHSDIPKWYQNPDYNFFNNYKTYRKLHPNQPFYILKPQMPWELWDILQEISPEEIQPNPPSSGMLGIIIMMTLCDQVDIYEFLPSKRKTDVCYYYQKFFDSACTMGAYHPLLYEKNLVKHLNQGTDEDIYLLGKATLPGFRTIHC
Genome polyprotein NS2B-NS3 protease: Genome polyprotein, NS2B-NS3 protease (Dengue virus type 2, UniProt P14340)
CTSL: Procathepsin L (CTSL, Homo sapiens, UniProt P07711)
Chain of UniProt P07711 (whole entry, looked up): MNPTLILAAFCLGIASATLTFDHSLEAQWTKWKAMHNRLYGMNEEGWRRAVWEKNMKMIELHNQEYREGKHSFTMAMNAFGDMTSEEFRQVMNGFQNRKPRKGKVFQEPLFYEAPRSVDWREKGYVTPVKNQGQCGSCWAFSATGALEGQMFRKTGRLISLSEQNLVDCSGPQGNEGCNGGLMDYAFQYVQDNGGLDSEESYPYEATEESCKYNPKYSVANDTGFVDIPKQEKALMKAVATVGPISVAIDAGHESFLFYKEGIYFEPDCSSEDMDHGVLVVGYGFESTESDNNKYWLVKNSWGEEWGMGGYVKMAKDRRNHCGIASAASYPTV
Ectonucleoside triphosphate diphosphohydrolase 2: Ectonucleoside triphosphate diphosphohydrolase 2 (Homo sapiens, UniProt Q9Y5L3)
Chain of UniProt Q9Y5L3 (whole entry, looked up): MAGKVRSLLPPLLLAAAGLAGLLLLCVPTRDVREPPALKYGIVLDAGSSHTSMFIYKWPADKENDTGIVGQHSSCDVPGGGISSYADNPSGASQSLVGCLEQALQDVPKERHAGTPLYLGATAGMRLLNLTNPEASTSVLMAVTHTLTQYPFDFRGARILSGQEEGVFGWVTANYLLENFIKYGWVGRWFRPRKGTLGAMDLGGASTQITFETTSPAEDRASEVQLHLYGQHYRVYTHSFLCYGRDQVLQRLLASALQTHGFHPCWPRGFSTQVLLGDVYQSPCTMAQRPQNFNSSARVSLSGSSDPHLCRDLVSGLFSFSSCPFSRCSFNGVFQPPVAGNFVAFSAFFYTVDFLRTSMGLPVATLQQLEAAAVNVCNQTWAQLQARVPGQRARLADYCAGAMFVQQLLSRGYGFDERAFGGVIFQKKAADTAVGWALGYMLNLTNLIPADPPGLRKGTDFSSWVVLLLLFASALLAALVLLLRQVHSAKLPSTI
MAL12: Alpha-glucosidase MAL12 (MAL12, Saccharomyces cerevisiae S288c, UniProt P53341)
Chain of UniProt P53341 (whole entry, looked up): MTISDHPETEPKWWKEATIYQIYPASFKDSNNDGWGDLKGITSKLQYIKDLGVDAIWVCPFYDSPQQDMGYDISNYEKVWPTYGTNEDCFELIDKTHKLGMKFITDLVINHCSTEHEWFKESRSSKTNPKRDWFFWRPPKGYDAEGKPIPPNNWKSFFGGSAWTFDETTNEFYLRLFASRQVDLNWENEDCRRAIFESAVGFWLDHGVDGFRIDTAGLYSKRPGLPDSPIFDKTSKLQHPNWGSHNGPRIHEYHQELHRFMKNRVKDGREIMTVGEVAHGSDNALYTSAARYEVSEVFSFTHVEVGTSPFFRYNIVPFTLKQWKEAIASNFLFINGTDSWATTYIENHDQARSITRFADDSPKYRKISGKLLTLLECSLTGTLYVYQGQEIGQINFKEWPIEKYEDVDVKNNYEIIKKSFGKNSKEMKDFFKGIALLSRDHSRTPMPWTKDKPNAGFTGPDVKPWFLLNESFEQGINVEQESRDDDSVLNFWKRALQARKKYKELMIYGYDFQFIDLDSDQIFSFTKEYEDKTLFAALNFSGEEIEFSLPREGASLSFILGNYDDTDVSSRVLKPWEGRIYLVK
DNMT3A catalytic domain: DNA (cytosine-5)-methyltransferase 3A, catalytic domain (DNMT3A, Homo sapiens, UniProt Q9Y6K1)
Chain of UniProt Q8TF76 (whole entry, looked up): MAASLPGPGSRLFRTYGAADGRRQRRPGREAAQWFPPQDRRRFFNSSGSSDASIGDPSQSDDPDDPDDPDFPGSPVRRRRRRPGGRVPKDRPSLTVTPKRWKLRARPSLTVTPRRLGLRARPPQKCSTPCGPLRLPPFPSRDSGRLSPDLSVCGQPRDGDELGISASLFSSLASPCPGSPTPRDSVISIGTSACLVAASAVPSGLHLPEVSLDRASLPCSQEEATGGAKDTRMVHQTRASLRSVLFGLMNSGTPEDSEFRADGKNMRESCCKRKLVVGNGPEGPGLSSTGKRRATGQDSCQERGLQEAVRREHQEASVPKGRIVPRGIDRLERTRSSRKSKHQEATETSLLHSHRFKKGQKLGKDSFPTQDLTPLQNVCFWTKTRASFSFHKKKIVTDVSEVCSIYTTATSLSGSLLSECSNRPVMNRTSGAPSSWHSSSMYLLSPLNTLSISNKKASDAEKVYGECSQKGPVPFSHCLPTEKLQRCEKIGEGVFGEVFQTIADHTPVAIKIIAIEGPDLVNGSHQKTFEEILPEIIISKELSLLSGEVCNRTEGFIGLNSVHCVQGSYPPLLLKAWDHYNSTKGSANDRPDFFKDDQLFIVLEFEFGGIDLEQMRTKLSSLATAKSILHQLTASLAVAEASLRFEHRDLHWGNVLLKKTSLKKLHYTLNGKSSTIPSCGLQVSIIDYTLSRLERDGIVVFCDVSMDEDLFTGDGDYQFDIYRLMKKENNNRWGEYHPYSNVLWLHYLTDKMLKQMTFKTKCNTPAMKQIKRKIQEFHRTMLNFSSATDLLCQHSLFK
Chain of UniProt Q96RI1 (whole entry, looked up): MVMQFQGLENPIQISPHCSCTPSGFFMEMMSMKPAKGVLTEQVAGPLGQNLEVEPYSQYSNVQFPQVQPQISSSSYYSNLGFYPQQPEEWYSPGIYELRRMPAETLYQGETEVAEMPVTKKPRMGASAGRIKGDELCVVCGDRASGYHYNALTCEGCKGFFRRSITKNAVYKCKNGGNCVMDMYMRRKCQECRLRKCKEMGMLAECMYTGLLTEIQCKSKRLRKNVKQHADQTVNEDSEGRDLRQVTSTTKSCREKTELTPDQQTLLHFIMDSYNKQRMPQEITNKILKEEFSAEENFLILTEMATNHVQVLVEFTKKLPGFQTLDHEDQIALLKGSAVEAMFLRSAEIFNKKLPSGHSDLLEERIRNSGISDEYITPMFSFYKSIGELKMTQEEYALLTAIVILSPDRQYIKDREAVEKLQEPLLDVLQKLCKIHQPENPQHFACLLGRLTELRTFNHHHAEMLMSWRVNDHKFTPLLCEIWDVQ
Chain of UniProt Q06830 (whole entry, looked up): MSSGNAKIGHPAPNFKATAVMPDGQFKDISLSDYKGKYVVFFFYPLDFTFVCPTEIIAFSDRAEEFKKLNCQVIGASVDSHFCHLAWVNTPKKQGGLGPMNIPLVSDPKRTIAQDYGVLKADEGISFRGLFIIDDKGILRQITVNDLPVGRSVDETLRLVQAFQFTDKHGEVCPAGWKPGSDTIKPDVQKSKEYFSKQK

Structure (SMILES) = CC(=O)C12NC(C)(C)CC1(C)C(=O)C1=C2c2c(c3c4n2C(C)(C)CC2=C4C4(CC(C)(C)NC(C)(C4)C2=O)CC3(C)C)C(=O)C(C)(C)N1 (single isomer, unassigned; (+)); target = Potassium voltage-gated channel subfamily A member 3 (KCNA3, Homo sapiens, UniProt P22001); test = antagonist; test system = HEK293T; setting = 10 µM; inhibition = 93.8%
Structure (SMILES) = CCCCCCCn1c(=O)[nH]c2ccccc21; target = Intermediate conductance calcium-activated potassium channel protein 4 (KCNN4, Homo sapiens, UniProt O15554); test = ion current, inhibitor, whole-cell patch clamp; setting = 50 µM; inhibition = 50%
Structure (SMILES) = O=C(Oc1nsnc1N1CCOCC1)N1CCOCC1; target = Beta-lactamase TEM (bla, Escherichia coli, UniProt P62593); test = enzyme activity, inhibitor, colorimetric nitrocefin; setting = up to 300 µM; inhibition = no inhibition
Structure (SMILES) = NOCC(=O)O; target = Cystathionine beta-synthase (CBS, Homo sapiens, UniProt P35520); test = enzyme activity, inhibitor, fluorescence; setting = 100 µM; inhibition = 94%
Structure (SMILES) = NC(=O)c1ccc(C(=O)NOCc2ccc(Sc3cccc(Cl)c3)c(C(F)(F)F)c2)cc1; target = SIRT6; test = enzyme activity, inhibitor, fluorescence; setting = 100 µM; inhibition = 98.3%
Structure (SMILES) = COc1cc2c(cc1I)[C@H]1CC[C@@]3(C)C(=O)CC[C@H]3[C@@H]1CC2; target = AKR1C3; test = enzyme activity, inhibitor, absorbance; setting = 100 µM, pH 9; inhibition = 50.8%
Structure (SMILES) = C[C@H](CCC(c1c[nH]c2ccccc12)c1c[nH]c2ccccc12)[C@H]1CC[C@H]2[C@@H]3CC[C@@H]4C[C@H](O)CC[C@]4(C)[C@H]3CC[C@]12C; target = ST6GAL1; test = enzyme activity, inhibitor, UPLC; setting = 25 µM; inhibition = 24%
Structure (SMILES) = COc1ccc2c(c1I)CC[C@@H]1[C@@H]2CC[C@@]2(C)C(=O)CC[C@@H]12; target = AKR1C3; test = enzyme activity, inhibitor, absorbance; setting = 100 µM, pH 9; inhibition = 19.8%
Structure (SMILES) = COCCNC(=O)[C@H](CNC(=O)Cn1cc(C(N)=O)c(=O)[nH]c1=O)NC(=O)CCc1nc(-c2cccnc2)no1; target = SIRT6; test = demyristoylation; setting = 10 µM; inhibition = 9%
Structure (SMILES) = Oc1c(C(Nc2nccs2)c2ccccc2OCc2ccccc2)ccc2cccnc12 (centres unmarked); target = Genome polyprotein NS2B-NS3 protease; test = enzyme activity, inhibitor, fluorogenic; setting = 25 µM, 0.1% CHAPS, with: Bz-Nle-Lys-Arg-Arg-AMC substrate; inhibition = 92.6 ± 1.47%
Structure (SMILES) = CC(C)CC(NC(=O)CCn1nc(Cc2ccccc2)c2ccccc2c1=O)C(=O)NN (centres unmarked); target = Vascular endothelial growth factor receptor 2 (KDR, Homo sapiens, UniProt P35968); test = enzyme activity, inhibitor; setting = 10 µM; inhibition = 92.4%
Structure (SMILES) = C[C@H](CCC(=O)N[C@H](CC(c1c[nH]c2ccc(NC(=O)OC(C)(C)C)cc12)c1c[nH]c2ccc(NC(=O)OC(C)(C)C)cc12)C(=O)O)[C@H]1CC[C@H]2[C@@H]3CC[C@@H]4C[C@H](O)CC[C@]4(C)[C@H]3CC[C@]12C; target = ST6GAL1; test = enzyme activity, inhibitor, UPLC; setting = 25 µM; inhibition = 82%
Structure (SMILES) = C[C@@]12CC[C@@H]3c4ccc(O)c(I)c4CC[C@H]3[C@@H]1CCC2=O; target = AKR1C3; test = enzyme activity, inhibitor, absorbance; setting = 100 µM, pH 9; inhibition = 85.7%
Structure (SMILES) = CC(C)CCC[C@@H](C)[C@H]1CCC([C@@H]2CC[C@H]3C[C@@H](O)CC[C@]3(C)[C@@H]2O)[C@]1(C)CC(=O)O (some centres unmarked); target = Bile acid receptor (NR1H4, Homo sapiens, UniProt Q96RI1); test = reporter gene, antagonist, luciferase; test system = HEK-293T; setting = 10 µM; inhibition = 89.5%
Structure (SMILES) = C[C@H](CCC(=O)N[C@H](CC(c1c[nH]c2ccc(OCc3ccccc3)cc12)c1c[nH]c2ccc(OCc3ccccc3)cc12)C(=O)O)[C@H]1CC[C@H]2[C@@H]3CC[C@@H]4C[C@H](O)CC[C@]4(C)[C@H]3CC[C@]12C; target = ST6GAL1; test = enzyme activity, inhibitor, UPLC; setting = 25 µM; inhibition = 100%
Structure (SMILES) = CC(C)C[C@H](NC(=O)[C@H](CCC(N)=O)NC(=O)[C@H](CCCCN)NC(=O)[C@H](CCCNC(=N)N)NC(=O)[C@@H]1CCCN1C(=O)[C@H](C)NC(=O)[C@@H](N)CCCCN)C(=O)N[C@@H](C)C(=O)N[C@H](C(=O)N[C@@H](CCCCN)C(=O)N[C@@H](C)C(=O)N[C@@H](C)C(=O)N[C@@H](CCCNC(=N)N)C(=O)N[C@@H](CCCCN)C(=O)N[C@@H](CO)C(=O)N[C@@H](C)C(=O)N1CCC[C@H]1C(=O)N[C@@H](C)C(=O)O)[C@@H](C)O; target = CTSL; test = enzyme activity, inhibitor; setting = 25 µM, pH 7.4, 25 °C, 3% DMSO, with: Z-LR-Mca at 0.16 x Km; inhibition = 68 ± 2%
Structure (SMILES) = O=C(Nc1ccc(Cl)cc1)c1cccc(S(=O)(=O)Nc2ccc(Cl)cc2)c1; target = Ectonucleoside triphosphate diphosphohydrolase 2; test = enzyme activity, inhibitor, absorbance; setting = 100 µM; inhibition = 35%
Structure (SMILES) = S=C(Nc1cc(Cl)cc(Cl)c1)Nc1cccc2[nH]ccc12; target = Microtubule-associated protein tau, 2N3R isoform (MAPT, Homo sapiens, UniProt P10636); test = tau fibril formation, ThT fluorescence; setting = 100 µM, tau at 10 µM; inhibition = 97%
Structure (SMILES) = Nc1ccccc1NC(=O)c1ccc(Nc2nccc(-c3cn(C4CCCCC4)nn3)n2)cc1; target = Cyclin-dependent kinase 2, with cyclin A2 (CDK2, Homo sapiens, UniProt P24941); test = enzyme activity, inhibitor, TR-FRET; setting = 5 µM; inhibition = 23.9%
Structure (SMILES) = C[C@]12CC[C@@H]3c4cc(Cl)c(O)cc4CC[C@H]3[C@@H]1CCC2=O; target = AKR1C3; test = enzyme activity, inhibitor, absorbance; setting = 100 µM, pH 9; inhibition = 86.8%
Structure (SMILES) = COc1ccccc1-c1ccncc1C(=O)Nc1nnc(OCc2ccc(Cl)cc2)s1; target = Bifunctional 3'-5' exonuclease/ATP-dependent helicase WRN, residues 500-946 (WRN, Homo sapiens, UniProt Q14191); test = ATPase activity, inhibitor, ADP-Glo; setting = up to 30 µM; inhibition = no inhibition
Structure (SMILES) = Cc1c(C)n(-c2ccc(Br)cc2)c2ncnc(N3CCC(C(N)C(=O)N4CCCC4)CC3)c12 (centres unmarked); target = Protein-arginine deiminase type-4 (PADI4, Homo sapiens, UniProt Q9UM07); test = enzyme activity, inhibitor; setting = 40 µM; inhibition = 56%
Structure (SMILES) = C[C@]12CC[C@@H]3c4ccc(O)c(Br)c4CC[C@H]3[C@@H]1CCC2=O; target = AKR1C3; test = enzyme activity, inhibitor, absorbance; setting = 100 µM, pH 9; inhibition = 8.3%
Structure (SMILES) = C[C@H](CCC(=O)N[C@H](CC(c1c[nH]c2ccccc12)c1c[nH]c2ccccc12)C(=O)O)[C@H]1CC[C@H]2[C@@H]3CC[C@@H]4C[C@H](O)CC[C@]4(C)[C@H]3CC[C@]12C; target = ST6GAL1; test = enzyme activity, inhibitor, UPLC; setting = 25 µM; inhibition = 100%
Structure (SMILES) = Oc1c(C(Nc2nc3ccccc3s2)c2ccccc2OCc2ccccc2)ccc2cccnc12 (centres unmarked); target = Genome polyprotein NS2B-NS3 protease; test = enzyme activity, inhibitor, fluorogenic; setting = 10 µM, 0.1% CHAPS, with: Bz-Nle-Lys-Arg-Arg-AMC substrate; inhibition = 82.8 ± 1.06%
Structure (SMILES) = C[C@@H](N)C1CCN(S(=O)(=O)c2cccc3cnccc23)CC1; target = Serine/threonine-protein kinase haspin (HASPIN, Homo sapiens, UniProt Q8TF76); test = cell-free assay, competition with immobilised ligand; setting = 10 µM; inhibition = > 95%
Structure (SMILES) = O=C(Nc1ccc(Cl)cc1)c1cccc(S(=O)(=O)N2CCOCC2)c1; target = Ectonucleoside triphosphate diphosphohydrolase 2; test = enzyme activity, inhibitor, absorbance; setting = 100 µM; inhibition = 15%
Structure (SMILES) = Clc1ccc(NN=C(c2ccccc2)c2ccccn2)nc1; target = Methylcytosine dioxygenase TET1 (TET1, Homo sapiens, UniProt Q8NFU7); test = enzyme activity, inhibitor, biochemical; setting = concentration not given; inhibition = no inhibition
Structure (SMILES) = COc1cc(O)c2c(=O)c(OC)c(-c3ccc(O)c(O)c3)oc2c1; target = MAL12; test = enzyme activity, inhibitor, absorbance; setting = 10 µM; inhibition = 5.9%
Structure (SMILES) = NC(=O)c1cn(CC(=O)NCCNC(=O)CCc2nc(-c3cccnc3)no2)c(=O)[nH]c1=O; target = SIRT6; test = demyristoylation; setting = 10 µM; inhibition = 0%
Structure (SMILES) = COc1cc(C(=O)NC2CCC(N3CCN(CC4CCC5(CCCC5)C4)CC3)CC2)c(F)cc1Nc1ncc2c(n1)N(C1CCCC1(F)F)CC(F)(F)C(=O)N2C (centres unmarked); target = Serine/threonine-protein kinase PLK3 (PLK3, Homo sapiens, UniProt Q9H4B4); test = cell-free assay, TR-FRET; setting = 10 µM; inhibition = 0.24%
Structure (SMILES) = Cc1cccc(/C=C/C(=O)c2cnn(-c3ccccc3)c2C)c1; target = MAL12; test = enzyme activity, inhibitor; setting = 350 µM; inhibition = 37.1%
Structure (SMILES) = Cc1nnc(-c2ccc(CNC(=O)CCCCCOc3cccc4c3C(=O)N(C3CCC(=O)NC3=O)C4=O)cc2)nn1 (centres unmarked); target = Mitogen-activated protein kinase 1 (MAPK1, Homo sapiens, UniProt P28482); test = enzyme activity, inhibitor; setting = 30 µM; inhibition = 46%
Structure (SMILES) = Cc1ccc(O)c(C(=O)Nc2ccc(CN)cc2)c1; target = CTSL; test = enzyme activity, inhibitor; setting = 10 µM; inhibition = < 20%
Structure (SMILES) = Cc1cc(Nc2ccc(NC(=O)c3ccc(Nc4c5ccccc5nc5ccccc45)cc3)cc2)nc(N)n1; target = DNMT3A catalytic domain; test = enzyme activity, inhibitor; setting = 10 µM; inhibition = 11%
Structure (SMILES) = C=CC(=O)Nc1cccc(-c2cnc3[nH]cc(C(=O)NC(C)(C)C)c3n2)c1; target = Tyrosine-protein kinase JAK3 (JAK3, Homo sapiens, UniProt P52333); test = enzyme activity, inhibitor; setting = 0.1 µM; inhibition = > 90%
Structure (SMILES) = O=C(CCCCCCN1CCN(c2ccc(Nc3ncc(F)c(-c4cn(C5CCCC5)nn4)n3)cc2)CC1)NO; target = Histone deacetylase 5 (HDAC5, Homo sapiens, UniProt Q9UQL6); test = enzyme activity, inhibitor; setting = 500 nM; inhibition = no effect
Structure (SMILES) = OCc1ccccc1S[C@@H]1O[C@H](CO)[C@H](O)[C@H](O)[C@H]1O; target = Sodium/glucose cotransporter 1 (SLC5A1, Homo sapiens, UniProt P13866); test = transporter uptake, inhibitor, radiometric; test system = CHO; setting = 10 µM; inhibition = 57.9%
Structure (SMILES) = COc1ccc2c(c1)CC[C@@H]1[C@@H]2CC[C@@]2(C)CCC[C@@H]12; target = AKR1C3; test = enzyme activity, inhibitor, absorbance; setting = 10 µM, pH 9; inhibition = 21.1%
Structure (SMILES) = C=C1C(=O)C23CCC4C(C)(C)CCCC4(C)C2C(O)CC1C3 (single isomer, unassigned); target = Peroxiredoxin-1 (PRDX1, Homo sapiens, UniProt Q06830); test = peroxidase activity, inhibitor, Amplex Red; setting = concentration not given; inhibition = inhibited
Structure (SMILES) = C[C@]12CCC[C@H]1[C@@H]1CCc3cc(O)ccc3[C@H]1CC2; target = AKR1C3; test = enzyme activity, inhibitor, absorbance; setting = 10 µM, pH 9; inhibition = 23.4%
Structure (SMILES) = COc1ccc(-c2cc(C(F)(F)F)cc(S(=O)(=O)NCC(=O)Nc3ccc(C)cc3)n2)cc1; target = Bifunctional 3'-5' exonuclease/ATP-dependent helicase WRN (WRN, Homo sapiens, UniProt Q14191); test = DNA unwinding, TAMRA dequenching; setting = concentration not given; inhibition = inactive
Structure (SMILES) = C[C@@]12CC[C@@H]3c4ccc(O)cc4CC[C@H]3[C@@H]1CCC2=O; target = AKR1C3; test = enzyme activity, inhibitor, absorbance; setting = 100 µM, pH 9; inhibition = 29.8%
Structure (SMILES) = Cc1cc(Nc2ccc(NC(=O)c3ccc(NC(=O)c4cccnc4)cc3)cc2)nc(N)n1; target = DNMT3A catalytic domain; test = enzyme activity, inhibitor; setting = 10 µM; inhibition = 0%

A few entries again:
Structure (SMILES) = COc1ccc2c(c1I)CC[C@@H]1[C@@H]2CC[C@@]2(C)C(=O)CC[C@@H]12; target = AKR1C3; test = enzyme activity, inhibitor, absorbance; setting = 100 µM, pH 9; inhibition = 19.8%
Structure (SMILES) = COCCNC(=O)[C@H](CNC(=O)Cn1cc(C(N)=O)c(=O)[nH]c1=O)NC(=O)CCc1nc(-c2cccnc2)no1; target = SIRT6; test = demyristoylation; setting = 10 µM; inhibition = 9%
Structure (SMILES) = Oc1c(C(Nc2nccs2)c2ccccc2OCc2ccccc2)ccc2cccnc12 (centres unmarked); target = Genome polyprotein NS2B-NS3 protease; test = enzyme activity, inhibitor, fluorogenic; setting = 25 µM, 0.1% CHAPS, with: Bz-Nle-Lys-Arg-Arg-AMC substrate; inhibition = 92.6 ± 1.47%
